Measured values from different studies.
Compare with care: the assays were run in different laboratories. Several values in a cell are separate wells, animals, samples, runs or records. ± marks the error that the study gave. ≈ marks a conversion by molar mass, not a printed value.

The tracer uptake of [123I]c1ccc2nc(-c3ccc(-n4ccnn4)nc3)cn2c1 is reported as 0.051 %ID/g (male Wistar rat, bone; intravenous, 4 MBq, 6 h).
CC1(N(CC(=O)O)CC(=O)O)CN(CC(=O)O)CCN(CC(=O)O)C1: “protonation constant (log)” 10.3 (pH-potentiometry, item: logK1H; 0.15 M NaClO4; 25 °C).
Under “hydrolysis activation energy”, CCN(CC)c1ccc2c(c1)O[B-]1(c3c(C)cccc3C)OC(=O)C(c3ccccc3)=N[N+]1=C2 (stereo not drawn) is recorded as 21.8 kcal/mol (UV/vis decay; aqueous buffer).
For CN1CCC[C@]1(C)/C=C/S(=O)(=O)NC(=O)Nc1c2c(cc3c1CC(O)C3)CCC2 (stereo partly drawn), the AUC(0-24) was 211 µg·h/mL (human, plasma; oral, 100 mg twice daily of parent drug, day 14, metabolite of dosed drug).
C=CC(=O)Nc1cc(Nc2nccc(-c3cn(C)c4ccccc34)n2)c(OC)cc1N(C)CCNC has a recovery of 101% (storage stability; human plasma; 2 h, on ice, LQC level).
CCN(CC)c1ccc2c(c1)O[B-]1(c3ccccc3C#N)OC(=O)C(c3ccccc3)=N[N+]1=C2 (stereo not drawn) — result for “hydrolysis activation energy”: 23.2 kcal/mol (UV/vis decay; aqueous buffer).
The drug-related headache of CC[C@H](C)[C@@H]1NC(=O)[C@H](Cc2ccc(O)cc2)NC(=O)CCCSC[C@@H](C(=O)N(CC(=O)N[C@@H](CC(C)C)C(=O)NCC(N)=O)Cc2ccc(F)cc2)NC(=O)[C@H](CC(N)=O)NC(=O)[C@H](CCC(N)=O)NC1=O is reported as 33% (human; intranasal, 5 µg single dose).
CCCCN1C(=O)c2cccc3c(NCCN4CCOCC4)ccc(c23)C1=O: “fluorescence quantum yield” 0.01 (DMSO).
CC(=O)N([O-])CCCCCNC(=O)CCC(=O)N([O-])CCCCCNC(=O)CCC(=O)N([O-])CCCCCN.[89Zr+4] gave a tracer uptake of 0.19 %ID/g (mouse, heart; 1 h).
With CC(C)C[C@H](NC(=O)[C@@H](CCCCNC(=O)[C@@H](Cc1ccccc1)NC(=O)CCCCCCCNC(=O)CN1CCN(CC(=O)O)CCN(CC(=O)O)CCN(CC(=O)O)CC1)NC(=O)[C@H](Cc1ccc(O)cc1)NC(=O)[C@H](CO)NC(=O)[C@H](Cc1c[nH]c2ccccc12)NC(=O)[C@H](Cc1c[nH]cn1)NC(=O)[C@@H]1CCC(=O)N1)C(=O)N[C@@H](CCCNC(=N)N)C(=O)N1CCC[C@H]1C(=O)NCC(N)=O [indium-111 labelled] the tissue uptake was 0.88 ± 0.42 %ID/g (biodistribution; male athymic nude mice, DU-145 prostate cancer xenograft, bone; intravenous, 0.037 MBq, 1 h post-injection).
Under “log2 fold change”, COC1CN([C@H]2CC[C@H]([C@@]3(C)Oc4c(Cl)cc(C(=O)NCc5c(SC)cc(C)[nH]c5=O)c(C)c4O3)CC2)C1 is recorded as 0.228 (RNA-seq, item: TJP2 mouse homolog; mouse, HT-1376 xenograft, whole blood; dose not given; relative to: vehicle).
For COc1cc(C=O)cc(OS(=O)(=O)Oc2ccc3c(c2)CC[C@@H]2[C@@H]3CC[C@]3(C)C(=O)CC[C@@H]23)c1OC, the hydrolysis conversion was 17% (concentration not given, 24 h, pH 4.8).
O=C(NS(=O)(=O)c1cccs1)c1cc2ccccc2n1Cc1ccc(Br)c2ccccc12 gave an ALT of 48.6 U/L and 55.6 U/L and 69.8 U/L and 51.4 U/L and 56.6 U/L and 49.2 U/L (KM mouse, chronic hyperuricaemia model, serum; dose not given).
O=S(=O)(NC1=NCCCCC1)c1ccc2sc(NS(=O)(=O)c3ccc4ccccc4c3)nc2c1 has a hydrodynamic radius of 1.86 nm (dynamic light scattering; buffer; 20 µM).
The tracer uptake of Cc1nc(N)nc2c1C(=O)N[C@@H](c1ccc(F)cc1-c1cccc(O[11CH3])n1)C2 is reported as 4.1 ± 1 %ID (ex vivo biodistribution; healthy mice, brain; 60 min post-injection, baseline, vehicle pre-treatment).
CC(C)(O)c1ncc([S@](N)(=O)=NC(=O)Nc2c3c(cc4c2CCC4)CCC3)s1 — result for “subjects with adverse events”: 17% (item: nervous system disorders; healthy human volunteers; oral, 300 mg single dose, spray-dried dispersion).
For C=CS(=O)(=O)Oc1ccc(OC)c(-c2c[nH]c3ncc(-c4cncc(C(=O)N(C)C)c4)cc23)c1, the hydrolytic half-life was greater than 24 h (HPLC; 50 µM, 37 °C, no lysine, followed to 24 h).
Under “log2 fold change”, Cc1ncsc1-c1ccc(C(C)NC(=O)C2CC(O)CN2C(=O)C(NC(=O)CCCCCCCCCCN2CCCC(Nc3ncc(Cl)c(Nc4ccccc4S(=O)(=O)C(C)C)n3)C2)C(C)(C)C)cc1 (stereo not drawn) is recorded as -1.15 (22Rv1; RNA-seq, item: ZNF473 mRNA; concentration not given; relative to: DMSO).
With C=C(NC(=O)c1csc(-c2nc3c(cc2O)-c2nc(cs2)C(=O)NC(C(C)O)C(=O)NC(=C(C)OC)c2nc(cs2)C(=O)NC2c4nc(cs4)C(=O)NC(COC(=O)c4c5c6c(cccc6n4O)COC(=O)C(OC4CC(C)(O)C(N(C)C)C(C)O4)C2OC5)c2nc-3cs2)n1)C(N)=O (stereo not drawn) the Cmax was 15600 ng/mL (male cynomolgus monkey, plasma; intravenous, 1 mg/kg, single dose, infusion).
CN1CCC[C@]1(C)/C=C/S(=O)(=O)NC(=O)Nc1c2c(cc3c1CCC3)CC=C2 gave an AUC(0-24) of 137 µg·h/mL (human, plasma; oral, 12.5 mg twice daily of parent drug, day 14, metabolite of dosed drug).
For Cc1noc(C)c1Cn1cc(N2C(=O)CN(Cc3cccc(O[C@@H]4O[C@H](C(=O)O)[C@@H](O)[C@H](O)[C@H]4O)c3)C2=O)cn1, the plasma concentration was 7 ng/mL (Sprague-Dawley rat, male; oral, 10 mg/kg of parent drug, 12 h).
CC[C@H](C)[C@H](NC(=O)C[C@H](NC(=O)CN1CCN2CCN(CC1)CC(=O)[O][Al]([18F])[O]C(=O)C2)C(=O)O)C(=O)N[C@H]1CCc2cccc3c2N(C1=O)[C@H](C(=O)NCc1cn[nH]n1)C3 — result for “maximum tumour uptake”: 2.21 ± 0.7 %ID/g (PET; C57BL/6J mice with MC-38 tumour, anti-PD-1 treated; 30 min).
For O=C(Nc1cnccc1-c1ccc([18F])nc1)c1ccnc(NC(=O)C2CC2)c1, the SUV was 0.084 (FVB/NJ mice, both sexes, brain; intravenous, 25 min, median, no P-gp inhibitor).
Under “percent of control”, C=CC(=O)Nc1cccc(Cn2ncc3cnc(Nc4cnn(CCOC)c4)nc32)c1 is recorded as 54% (TRPM6 human; binding, KINOMEscan; 100 nM; lower = stronger binding).
O=C(O)CCCOc1ccc([18F])cc1-c1cc(-c2ccccc2C(F)(F)F)n(-c2ccccc2)n1 has a peak radioactivity of 5.5 %ID/organ (mouse, small intestine; dose not given, 180 min post-administration).
Cc1nn(-c2nc3c(F)cc(F)cc3s2)c(O)c1C(c1ccc(C(F)(F)F)cc1)c1c(C)nn(-c2nc3c(F)cc(F)cc3s2)c1O gave a terminal half-life of 6.74 h and 8.98 h and 5.18 h (ICR mouse, plasma; intraperitoneal, 10 mg/kg).
O=S1(=O)CC2CCCCC2CS1 (stereo not drawn) gave a solubility of 5.52 mM (≈ 1140 µg/mL) (phase solubility, NMR; water; 25 °C, with: hydroxypropyl-β-cyclodextrin 38.8 mM).
CCCCCC(O)C=CC1OC2OC(C2F)C1CC=CCCCC(=O)O (stereo not drawn) gave a hydrolysis half-life of 490 h (50 mM phosphate buffer with DMSO; concentration not given, pH 7.40).
Nc1ncc(-c2cc(-c3cnn(CC(F)(F)F)c3)ncc2F)nc1C(=O)NC1CNCC(F)C1 (stereo not drawn) gave a remaining binding of 100% (PRKG2; KINOMEscan; 1 µM; relative to: DMSO control).
For C/C(N)=N/C(=N\S(=O)(=O)c1ccc(C(F)(F)F)cc1)N1C[C@H](c2ccccc2)C(c2ccc(Cl)cc2)=N1, “tissue to plasma AUC ratio” read 32 (male C57BL/6 mouse, lung; intravenous, 10 mg/kg; relative to: lung over plasma).
Cc1cc(-c2ccc(C(=O)[C@@H]3CCCC[C@H]3C(=O)Nc3cnn4c3C(=O)NCC4)cc2)[nH]n1: “cumulative recovery of radioactivity” 5.79% (human, faeces; oral, 200 mg, 0-24 h; relative to: dose).
With CN(C)C(=O)c1cccc(N2Cc3cnn(Cc4ccc(F)cc4)c3C2)c1 the half-life was 0.45 h (metabolic stability; human, liver microsomes).
CCCC[C@H]1C(=O)N(C)[C@@H](CCCC)C(=O)N[C@@H](CCCCNC(=S)Nc2ccc(CN3CCN(CC(=O)O)CCN(CC(=O)O)CC3)cc2)C(=O)N[C@H](C(=O)NCC(N)=O)CSCC(=O)N[C@@H](Cc2ccc(O)cc2)C(=O)N(C)[C@@H](C)C(=O)N[C@@H](CC(N)=O)C(=O)N2CCC[C@H]2C(=O)N[C@@H](Cc2cnc[nH]2)C(=O)N[C@@H](CCC(=O)O)C(=O)N2C[C@H](O)C[C@H]2C(=O)N[C@@H](Cc2c[nH]c3ccccc23)C(=O)N[C@@H](CO)C(=O)N[C@@H](Cc2cn(CC(=O)O)c3ccccc23)C(=O)N1C [fluorine-18 labelled] gave an SUV of 2.38 ± 0.75 SUV (PET, item: PD-L1; huCD34 mouse A-375 xenograft, tumour periphery beyond 3 mm; combination therapy).
C=CC(=O)Nc1cc(Nc2nccc(-c3c[nH]c4ccccc34)n2)c(OC)cc1N(C)CCN(C)C gave a recovery of 90% (storage stability; human plasma; 5 h, -80 °C, low QC level).
For CN1CCC[C@]1(C)/C=C/S(=O)(=O)NC(=O)Nc1c2c(cc3c1CCC3O)CCC2 (stereo partly drawn), “AUC(0-24) accumulation ratio” read 1.4 (human, plasma; oral, 100 mg twice daily of parent drug, metabolite of dosed drug; relative to: day 14 over day 1).
Under “hydrolysis half-life, B isomer”, N[C@@H](CC(=O)O)C(=O)OC(C(=O)O)c1ccc(Br)cc1[N+](=O)[O-] (mixture of isomers) is recorded as 18 ± 1 h (1H NMR, dark; 50 mM sodium phosphate; concentration not given, pH 5.8, room temperature, 12.5% DMSO-d6).
COc1ccc2c(c1)CN(C(=O)CCN1CCC(Cc3ccccc3)CC1)CC[S+]2[O-] (stereo not drawn) has a fu of 0.295 (dog plasma; 7500 ng/mL).
O=C1C2CC3CC1CC(C(=O)N1CCN(c4ccc([N+](=O)[O-])c5ncccc45)CC1)(C3)C2 gave a Tmax of 0.25 h (ICR mice male, plasma; oral, 5 mg/kg).
For CC[C@H](C)[C@H](NC(=O)[C@H](CCC(N)=O)NC(=O)[C@@H](NC(=O)[C@@H]1CCCN1[C@@H]1CN(C(=O)[C@H](CCCCN)NC(=O)[C@H](CC(N)=O)NC(=O)[C@@H](NC(=O)[C@@H](NC(=O)[C@H](CCC(N)=O)NC(=O)[C@@H](N)C(C)C)[C@@H](C)CC)[C@@H](C)CC)CC[C@H]1NS(=O)(=O)c1ccc(C)cc1)C(C)C)C(=O)N[C@H](C(=O)N[C@@H](Cc1ccc(O)cc1)C(=O)N[C@@H](CCCCN)C(N)=O)C(C)C, the beta-sheet content was 39.5% (CD spectroscopy; 20 mM phosphate buffer; 125 µM, 37 °C).
For O=C(Nc1cnccc1-c1ccc([18F])cc1)c1ccnc(NC(=O)C2CC2)c1, the SUV was 0.08 (FVB/NJ mice (both sexes), hippocampus; intravenous, dose not given, 120 min).
COc1ccc2c(c1)CCn1c[n+]3c(c1-2)-c1ccc(OC)cc1CC3 — result for “mean corpuscular volume”: 48.9 ± 1.86 fL (female NSG mice, blood; 6 mg/kg, day 20, 5 days per week).
The adverse events of COCC1CN(C2CCN(c3cc(OC)c(Nc4ncc(Br)c(Nc5ccc6c(c5P(C)(C)=O)OCCO6)n4)cc3C)CC2)C1 is reported as 0% (first-in-human trial; human; oral, 10 mg once daily; treatment-related leading to dose suspension).

For quick reference, copied from above:
CC1(N(CC(=O)O)CC(=O)O)CN(CC(=O)O)CCN(CC(=O)O)C1: “protonation constant (log)” 10.3 (pH-potentiometry, item: logK1H; 0.15 M NaClO4; 25 °C).
Under “percent of control”, C=CC(=O)Nc1cccc(Cn2ncc3cnc(Nc4cnn(CCOC)c4)nc32)c1 is recorded as 54% (TRPM6 human; binding, KINOMEscan; 100 nM; lower = stronger binding).
With CN(C)C(=O)c1cccc(N2Cc3cnn(Cc4ccc(F)cc4)c3C2)c1 the half-life was 0.45 h (metabolic stability; human, liver microsomes).
CCN(CC)c1ccc2c(c1)O[B-]1(c3ccccc3C#N)OC(=O)C(c3ccccc3)=N[N+]1=C2 (stereo not drawn) — result for “hydrolysis activation energy”: 23.2 kcal/mol (UV/vis decay; aqueous buffer).
CC(C)(O)c1ncc([S@](N)(=O)=NC(=O)Nc2c3c(cc4c2CCC4)CCC3)s1 — result for “subjects with adverse events”: 17% (item: nervous system disorders; healthy human volunteers; oral, 300 mg single dose, spray-dried dispersion).
COc1ccc2c(c1)CCn1c[n+]3c(c1-2)-c1ccc(OC)cc1CC3 — result for “mean corpuscular volume”: 48.9 ± 1.86 fL (female NSG mice, blood; 6 mg/kg, day 20, 5 days per week).
